{"data": "Measured values pooled from the literature", "note": "Each line is one published result; not all experiments were run side by side. Numbers after ± are the reported error."}
{"SMILES": "CCCC[C@H](NC(=O)[C@@H](NC(=O)[C@H](CC(=O)O)NC(=O)[C@H](CCC(N)=O)NC(=O)[C@H](CC(C)C)NC(=O)[C@H](CC(C)C)NC(=O)[C@H](CCCN)NC(=O)[C@H](CCCNC(=N)N)NC(=O)[C@H](C)NC(=O)[C@H](CO)NC(=O)[C@H](CC(C)C)NC(=O)[C@H](CCC(N)=O)NC(=O)[C@H](CC)NC(=O)[C@H](CC(C)C)NC(=O)[C@@H](NC(=O)[C@H](CCCN)NC(=O)[C@H](CCCNC(=N)N)NC(=O)[C@H](Cc1ccc(O)cc1)NC(=O)[C@H](CO)NC(=O)[C@H](CCC(N)=O)NC(=O)[C@@H](NC(=O)[C@H](Cc1ccccc1)NC(=O)[C@@H](NC(=O)[C@H](C)NC(=O)[C@H](CC(=O)O)NC(=O)[C@@H](C)NC(=O)CCc1ccc(O)cc1)[C@@H](C)CC)[C@@H](C)O)C(C)C)[C@@H](C)CC)C(=O)N[C@@H](CC(=O)O)C(=O)N[C@@H](CCCNC(=N)N)C(=O)NC", "test": "GH release, ELISA", "system": "male Sprague-Dawley rat, anaesthetised, serum", "conditions": "subcutaneous, 3 µg/kg, 15 min", "measurement": "serum GH level", "value": "213 ± 32 ng/mL"}
{"SMILES": "O=c1c(OCc2ccccc2)c(-c2ccc(Cl)cc2)oc2ccccc12", "system": "diabetic rat", "conditions": "7.5 mg/kg, 28 days, p-nitrophenyl β-glucoside induced", "measurement": "serum HDL cholesterol", "value": "46.1 ± 2.11 mg/dL"}
{"SMILES": "COc1ccc(C2CC(c3ccc(C)cc3)=Nc3ccccc3S2)cc1 (stereo not shown)", "system": "Wistar rat, streptozotocin-induced diabetes, serum", "conditions": "20 mg/kg, 28 days", "measurement": "serum creatinine", "value": "0.68 ± 0.29 mg/dL"}
{"SMILES": "CC(CCC(=O)NCc1ccc(C(=O)NO)cc1)C1CCC2C3C(O)CC4CC(O)CCC4(C)C3CCC12C (stereo not shown)", "system": "PCK rats", "conditions": "oral gavage, 15 mg/kg/day, 5 months", "how to read": "baseline: untreated", "measurement": "serum albumin", "value": "increased"}
{"SMILES": "Cc1ccc(-c2oc3ccccc3c(=O)c2OCc2ccccc2)cc1", "system": "diabetic rat", "conditions": "7.5 mg/kg, 28 days, p-nitrophenyl β-glucoside induced", "measurement": "serum total cholesterol", "value": "138 ± 4.72 mg/dL"}
{"SMILES": "COc1ccc(C2CC(c3ccc(C)cc3)=Nc3ccccc3S2)cc1OC (stereo not shown)", "system": "Wistar rat, streptozotocin-induced diabetes, serum", "conditions": "20 mg/kg, 28 days", "measurement": "serum creatinine", "value": "0.64 ± 0.33 mg/dL"}
{"SMILES": "CCCC[C@H](NC(=O)[C@@H](NC(=O)[C@H](CC(=O)O)NC(=O)[C@H](CCC(N)=O)NC(=O)[C@H](CC(C)C)NC(=O)[C@H](CC(C)C)NC(=O)[C@H](CCCN)NC(=O)[C@H](CCCNC(=N)N)NC(=O)[C@H](C)NC(=O)[C@H](CO)NC(=O)[C@H](CC(C)C)NC(=O)[C@H](CCC(N)=O)NC(=O)[C@H](CC)NC(=O)[C@H](CC(C)C)NC(=O)[C@@H](NC(=O)[C@H](CCCN)NC(=O)[C@H](CCCNC(=N)N)NC(=O)[C@H](Cc1ccc(O)cc1)NC(=O)[C@H](CO)NC(=O)[C@H](CC(N)=O)NC(=O)[C@@H](NC(=O)[C@H](Cc1ccccc1)NC(=O)[C@@H](NC(=O)[C@H](C)NC(=O)[C@H](CC(=O)O)NC(=O)[C@@H](CC)NC(=O)CCc1ccc(O)cc1)[C@@H](C)CC)[C@@H](C)O)C(C)C)[C@@H](C)CC)C(=O)N[C@@H](CO)C(=O)N[C@@H](CCCNC(=N)N)C(=O)NCCCC(N)=O", "test": "GH release, ELISA", "system": "male Sprague-Dawley rat, anaesthetised, serum", "conditions": "subcutaneous, 3 µg/kg, 0 min", "measurement": "serum GH level", "value": "25.4 ± 4.1 ng/mL"}
{"SMILES": "Cc1cc(O)c(C=O)c2c1C(=O)Oc1c(CO)c(O)c3c(c1O2)C(O)OC3=O (stereo not shown)", "system": "streptozotocin-induced diabetic male rats, serum", "conditions": "5 mg/kg, 5 weeks", "measurement": "serum insulin", "value": "5.06 ± 0.26 mIU/L"}
{"SMILES": "O=c1c(OCc2ccccc2)c(-c2cccc([N+](=O)[O-])c2)oc2ccccc12", "system": "diabetic rat", "conditions": "7.5 mg/kg, 28 days, p-nitrophenyl β-glucoside induced", "measurement": "serum total cholesterol", "value": "148 ± 4.77 mg/dL"}
{"SMILES": "CCCC[C@H](NC(=O)[C@@H](NC(=O)[C@H](CC(=O)O)NC(=O)[C@H](CCC(N)=O)NC(=O)[C@H](CC(C)C)NC(=O)[C@H](CC(C)C)NC(=O)[C@H](CCCN)NC(=O)[C@H](CCCNC(=N)N)NC(=O)[C@H](C)NC(=O)[C@H](CO)NC(=O)[C@H](CC(C)C)NC(=O)[C@H](CCC(N)=O)NC(=O)[C@H](CC)NC(=O)[C@H](CC(C)C)NC(=O)[C@@H](NC(=O)[C@H](CCCN)NC(=O)[C@H](CCCNC(=N)N)NC(=O)[C@H](Cc1ccc(O)cc1)NC(=O)[C@H](CO)NC(=O)[C@H](CCC(N)=O)NC(=O)[C@@H](NC(=O)[C@H](Cc1c(F)c(F)c(F)c(F)c1F)NC(=O)[C@@H](NC(=O)[C@H](C)NC(=O)[C@H](CC(=O)O)NC(=O)[C@@H](C)NC(=O)[C@H](Cc1ccc(O)cc1)NC)[C@@H](C)CC)[C@@H](C)O)C(C)C)[C@@H](C)CC)C(=O)N[C@@H](CC(=O)O)C(=O)N[C@@H](CCCNC(=N)N)C(=O)NC", "test": "GH release, ELISA", "system": "male Sprague-Dawley rat, anaesthetised, serum", "conditions": "subcutaneous, 3 µg/kg, 15 min", "measurement": "serum GH level", "value": "320 ± 32.7 ng/mL"}
{"note": "For quick reference, copied from above:"}
{"SMILES": "CC(CCC(=O)NCc1ccc(C(=O)NO)cc1)C1CCC2C3C(O)CC4CC(O)CCC4(C)C3CCC12C (stereo not shown)", "system": "PCK rats", "conditions": "oral gavage, 15 mg/kg/day, 5 months", "how to read": "baseline: untreated", "measurement": "serum albumin", "value": "increased"}
